Experimental data of several laboratories.
Numbers after ± are the reported error. Converted amounts (≈) assume the structure as drawn.

O=C(N=P12CN3CN(CN(C3)C1)C2)c1ccccn1.[Cl][Pd][Cl]  IC50 (DU-145; cell growth or viability, MTT; 24 h): 301 µM
O=C1C[C@@H](c2ccc(O)cc2)Oc2cc(O)ccc21  hind paw volume (Sprague-Dawley rat, Freund's adjuvant arthritis; oral, 10 mg/kg, 6 h, added: aconitine 1 mg/kg): 1.87 ± 0.06 mL
CCCC/C=C/C(=O)N[C@@H](Cc1cc(F)cc(F)c1)C(=O)N[C@@H](COC(=O)[C@@H]1CCCN1C(C)=O)C(=O)OC  remaining activity (Mycobacterium tuberculosis ClpX; ATPase activity; 50 µM, DMSO 80%, added: ClpP1P2; relative to: basal activity): ~60%
CCN(CC)Cc1cc(Nc2c(C)cnc3cc(Cl)ccc23)ccc1O  EC50 (West Nile virus; viral replication, Rluc reporter replicon; Vero WNV replicon cells; 24 h): 14.8 ± 0.48 µM
COc1cc(CNC(=O)C[C@H](C)CCC=C(C)C)ccc1OCc1cn(-c2ccccc2Cl)nn1  growth (HL-60(TB); SRB; 10 µM, 48 h): 41.1%
CC(C)C[C@H](NC(=O)CNC(=O)[C@H](CO)NC(=O)[C@@H](NC(=O)[C@H](CC(C)C)NC(=O)[C@H](CCCCN)NC(=O)[C@H](CS)NC(=O)[C@H](CCCNC(=N)N)NC(=O)[C@H](CS)NC(=O)[C@@H](NC(=O)[C@@H](NC(=O)[C@H](CO)NC(=O)[C@H](CS)NC(=O)[C@H](CC(C)C)NC(=O)[C@H](CCCCN)NC(=O)[C@H](CCC(N)=O)NC(=O)[C@H](C)NC(=O)CNC(=O)[C@H](CCCNC(=N)N)NC(=O)[C@H](CO)NC(=O)[C@H](CCCNC(=N)N)NC(=O)[C@H](CS)NC(=O)[C@H](CC(C)C)NC(=O)[C@H](CC(N)=O)NC(=O)[C@H](Cc1ccc(O)cc1)NC(=O)[C@H](CS)NC(=O)[C@H](CC(N)=O)NC(=O)[C@H](CCCNC(=N)N)NC(=O)CNC(=O)[C@H](CC(C)C)NC(=O)[C@@H](NC(=O)[C@@H](NC(=O)[C@H](CCCNC(=N)N)NC(=O)[C@H](CS)NC(=O)[C@H](CS)NC(=O)[C@H](CO)NC(=O)[C@@H](N)CCCCN)[C@@H](C)O)[C@@H](C)O)[C@@H](C)O)C(C)C)[C@@H](C)O)C(=O)N[C@@H](CO)C(=O)N[C@@H](CS)C(=O)N1CCC[C@H]1C(=O)N[C@@H](CCCCN)C(=O)NCC(=O)N[C@@H](Cc1ccccc1)C(=O)N1CCC[C@H]1C(=O)N[C@@H](CCCCN)C(=O)O  mRNA level (item: TaPR1; Triticum aestivum cv. Fielder; dose not given, combined sgB and sgD; relative to: control): increased
Cc1cc(Nc2nc(C[C@@]3(C(=O)O)CCN(Cc4cccc(Cl)c4F)[C@H](C)C3)cc(C)c2F)[nH]n1  inhibition (AURKA (Thr288 phosphorylation), mouse; AURKA phosphorylation, inhibitor, item: phospho-AURKA Thr288; mouse, NCI-H446 xenograft, tumour; oral, 2.5 mg/kg single dose, 1 h): 50.1%
CN[C@@H]1[C@H](O)[C@H](NC)[C@H]2O[C@]3(O)[C@H](O[C@@H]2[C@H]1O)O[C@H](C)C[C@@]3(O)CNCc1ccc(F)cc1  MIC (Mycobacteroides abscessus; microbial growth; ATCC19977; 5 days): 128 µg/mL (≈ 271 µM)
COc1cc(CNC(=O)C[C@H](C)CCC=C(C)C)ccc1OCc1cn(-c2ccc(F)cc2)nn1  growth (HL-60(TB); SRB; 10 µM, 48 h): 89.3%
COc1ccc(-n2cc(C(=O)N3C[C@]4(OC(=O)c5ccccc5NC(C)=O)CC[C@H](OC)[C@@]56[C@@H]4C[C@@H]([C@@H]35)[C@@]3(O)C[C@H](OC)[C@H]4C[C@@H]6[C@]3(O)[C@H]4OC)nn2)cc1  iNOS protein level (RAW264.7; western blot; 30, 60 or 120 µM, 24 h, added: LPS 1 µg/mL): decreased
CCN(CC)Cc1cc(Nc2c(C3CCCC3)c(C)nc3cc(Cl)ccc23)ccc1O  inhibition (West Nile virus; replicon replication, luciferase reporter; Vero WNV Rluc replicon; 50 µM, 24 h): inhibited
CC(C)[C@]12O[C@H]1[C@@H]1O[C@]13[C@]1(O[C@H]1C[C@H]1c4c(C(=O)c5ccccc5)oc(OC(=O)c5ccccc5)c4CC[C@@]13C)[C@@H]2O  IC50 (MV4-11; cell viability, Alamar Blue; 72 h): 0.0162 µM
CCCc1cc(Cc2ccccc2)cc2c1NCCC2NC(=O)C(N)Cc1c(C)cc(O)cc1C (stereo not drawn)  antinociception (warm water tail withdrawal; male C57BL/6 mice; intraperitoneal, 10 mg/kg): inactive
COc1cc(CNC(=O)C[C@H](C)CCC=C(C)C)ccc1OCc1cn(-c2cccc(C(F)(F)F)c2)nn1  growth (HL-60(TB); SRB; 10 µM, 48 h): 96.3%
CNC(=O)c1cc(Oc2ccc(NC(=O)c3ccc(-c4cccc(COC(=O)CCC(=O)OC5OC6OC7(C)CCC8C(C)CCC(C5C)C68OO7)c4)cn3)cc2)ccn1 (stereo not drawn)  Bax protein level (Huh-7; western blot; concentration not given, 48 h): increased
CC/C=C\C/C=C\C/C=C\C/C=C\C/C=C\C/C=C\CCC(=O)Nc1ccn(C2OC(CO)C(O)C2(F)F)c(=O)n1 (stereo not drawn)  CC50 (T47D): 71.9 µM
Oc1ccc(Nc2ccnc3cc(Cl)ccc23)cc1  EC50 (West Nile virus; viral replication, Rluc reporter replicon; Vero WNV replicon cells; 24 h): > 100 µM
C=CCc1cc2c(c(OC)c1OC)OCO2  GI50 (A-375; cell growth or viability, MTT; 72 h): > 250 µM
CCCC[C@H](NC(=O)[C@@H]1CCCN1C(=O)CNC(=O)[C@H](CCCCN)NC(=O)[C@H](Cc1c[nH]cn1)NC(=O)[C@H](CO)NC(=O)[C@H](CC(C)C)NC(=O)[C@H](CCCNC(=N)N)NC(=O)[C@@H]1CCCN1C(=O)[C@H](CCCNC(=N)N)NC(=O)[C@@H]1CCC(=O)N1)C(=O)NC(C)(C)C(=O)N[C@@H](Cc1ccc(Br)cc1)C(=O)O  infarct size (wild-type mouse, ischaemia-reperfusion injury; dose not given): decreased
CC(C)CC(O)(CC(C)C)c1cn(C(=O)N2CCCC2)nn1  SILAC ratio (mouse T-cells; N-terminal labeled proteins, N-terminal enrichment proteomics, item: SKP1A; 1 nM, 6 h; relative to: DMSO): 2.65 ± 0.24
CC[N+](C)(CC)Cc1cc(Nc2ccnc3cc(Cl)ccc23)ccc1O  EC50 (Dengue virus type 2; viral replication, Rluc reporter replicon; BHK-21 DENV2 replicon cells; 24 h): 29.7 ± 2.26 µM

Excerpt of the above:
CC[N+](C)(CC)Cc1cc(Nc2ccnc3cc(Cl)ccc23)ccc1O  EC50 (Dengue virus type 2; viral replication, Rluc reporter replicon; BHK-21 DENV2 replicon cells; 24 h): 29.7 ± 2.26 µM
COc1cc(CNC(=O)C[C@H](C)CCC=C(C)C)ccc1OCc1cn(-c2ccc(F)cc2)nn1  growth (HL-60(TB); SRB; 10 µM, 48 h): 89.3%
